Measured values from different studies.
Each line is one published result; not all experiments were run side by side. ± gives the spread as reported.

| Compound | target or system | test | system | setting | how to read | measurement | value |
| --- | --- | --- | --- | --- | --- | --- | --- |
| Nc1ncc(-c2cc(-c3cnn(CC(F)(F)F)c3)ncc2F)nc1C(=O)NC1CNCC(F)C1 (stereo not shown) | CDK11 | KINOMEscan |  | 1 µM | relative to: DMSO control | remaining binding | 75% |
| COc1ccc(NC(=O)C2CCCN(c3ncnc4[nH]c(-c5ccc(NC6CCN(C)CC6)cc5C)cc34)C2)cc1 (stereo not shown) | NCI-H2228 | cell growth or viability, MTT |  | 5 µg/mL, 72 h |  | inhibition | 96% |
| CN1CCC[C@]1(C)/C=C/S(=O)(=O)NC(=O)Nc1c2c(cc3c1CCC3)CCC2 |  |  | human, whole blood ex vivo | 12.5 mg twice daily, day 1, 6 h, multiple ascending dose, together with: LPS and ATP |  | IL-1β inhibition | 96.7% |
| CC(C)c1ccc(N(C)c2ccc3c(c2)OCC[C@H]3CNc2cnccc2C(=O)O)cc1 | SCC-9 | cell viability |  | 7 days |  | IC50 | ≥ 10 µM |
| CC(=O)[O-].O.O.[O-]c1ccc(Br)cc1C=NCCN1CCOCC1.[Zn+2] |  | hydroxyl radical scavenging |  | 200 µM |  | inhibition | 45.9% |
| Cc1noc(C)c1-c1cc2c(N3CCC[C@H](C(=O)NCc4ccc(OC(F)(F)F)cc4)C3)ncnc2[nH]1 | NCI-H2228 | cell growth or viability, MTT |  | 0.008 µg/mL, 72 h |  | inhibition | 17.8% |
| Cc1ncsc1-c1ccc(C(C)NC(=O)C2CC(O)CN2C(=O)C(NC(=O)CCCCCCCCCCN2CCCC(Nc3ncc(Cl)c(Nc4ccccc4S(=O)(=O)C(C)C)n3)C2)C(C)(C)C)cc1 (stereo not shown) | 22Rv1 | RNA-seq, refers to: SLC16A6 mRNA |  | concentration not given | relative to: DMSO | log2 fold change | -1.22 |
| Cc1c(C)c2cccnc2c2ncccc12.O=[N+]([O-])[O-].O=c1c(C=NN=C([S-])Nc2ccccc2)coc2ccccc12.[Cu+2] | supercoiled pUC19 DNA | oxidative DNA cleavage |  | concentration not given, superoxide dismutase 1 U, together with: ascorbic acid |  | supercoiled DNA remaining | 0% |
| C=CC(=O)Nc1cccc(Cn2ncc3cnc(Nc4cnn(CCOC)c4)nc32)c1 | SNRK human | binding, KINOMEscan |  | 100 nM | lower = stronger binding | percent of control | 89% |
| CN1CCN(C(=O)c2ccc(-c3cc4c(N5CCC[C@H](C(=O)NCc6ccc(OC(F)(F)F)cc6)C5)ncnc4[nH]3)cc2)CC1 | NCI-H2228 | cell growth or viability, MTT |  | 0.04 µg/mL, 72 h |  | inhibition | 58.2% |
| COc1cc(O)ccc1CCC(c1ccc(O)cc1)c1cc2c(c(C)c1O)OC(c1ccc(O)cc1)CC2 (mixture of isomers) |  |  | human blood | 3 µM, together with: A23187 |  | PGD2 level | 3 ± 2 pg/mL |
| CN1CCCNC(=O)c2cccc(c2)C(=O)NCCCN(C)CCCNc2cccc3c2C(=O)c2cccc(c2C3=O)NCCC1 | SAS | RNA-Seq, refers to: UPF2 mRNA |  | 1 µM, 6 h | relative to: untreated cells | log2 fold change | -1.13 |
| CCN(CC)CC(=O)Nc1cccc(-n2cc(-c3ccc4ccc(-c5cn(-c6cccc(NC(=O)CN(CC)CC)c6)nn5)cc4c3)nn2)c1 | RCC4 | PCR angiogenesis array, refers to: THBS2 |  | 5 x IC50, 6 h, normoxia | relative to: untreated | fold regulation | -1.35 fold |
| COc1ccc(C(=O)CCc2cc(C(CCc3ccc(O)cc3OC)c3ccc(O)cc3)c(O)cc2OC)cc1 (racemic) |  |  | human blood | 3 µM, together with: A23187 |  | 5-HEPE level | 181 ± 50 pg/mL |
| COc1cc(-c2cc3c(N4CCC[C@H](C(=O)NCc5ccc(OC(F)(F)F)cc5)C4)ncnc3[nH]2)cc(OC)c1OC | NCI-H2228 | cell growth or viability, MTT |  | 5 µg/mL, 72 h |  | inhibition | 84.9% |
| Nc1ncnc2[nH]nc(Nc3ccc(F)c(F)c3)c12 | coxsackievirus B3 | viral cytopathic effect | HeLa |  |  | IC50 | 30.9 µM |
| COC1CN([C@H]2CC[C@H]([C@@]3(C)Oc4c(Cl)cc(C(=O)NCc5c(SC)cc(C)[nH]c5=O)c(C)c4O3)CC2)C1 |  | RNA-seq, refers to: FZD7 mouse homolog | mouse, HT-1376 xenograft, whole blood | dose not given | relative to: vehicle | log2 fold change | 0.0586 |
| C=C(NC(=O)c1csc(-c2nc3c(cc2O)-c2nc(cs2)C(=O)NC(C(C)O)C(=O)NC(=C(C)OC)c2nc(cs2)C(=O)NC2c4nc(cs4)C(=O)NC(COC(=O)c4c5c6c(cccc6n4O)COC(=O)C(OC4CC(C)(O)C(N(C)C)C(C)O4)C2OC5)c2nc-3cs2)n1)C(N)=O (stereo not shown) | Streptococcus pneumoniae |  | -25, immunocompromised mice, lung infection, lung | 32 mg/kg/day once daily, 24 h post-dose |  | bacterial load | 3.96 log CFU/g |
| O=C(NCc1ccc(OC(F)(F)F)cc1)[C@H]1CCCN(c2ncnc3[nH]c(-c4ccc(N5CCOCC5)cc4)cc23)C1 | NCI-H2228 | cell growth or viability, MTT |  | 1 µg/mL, 72 h |  | inhibition | 71.4% |
| N=C(NCC[C@H](NC(=O)c1noc(-c2cc(F)ccc2F)n1)c1nc2ccccc2[nH]1)c1ccc([N+](=O)[O-])o1 | STING pathway | inhibitor, RT-qPCR | mouse iBMDM | concentration not given, 2 h, together with: diABZI 500 nM |  | IL6 mRNA level | inhibited |
| C=CC(=O)N1[C@@H](c2ccc3c(c2)OCO3)c2[nH]c3ccccc3c2C[C@H]1C(=O)N1CCN(C)CC1 | human cyclin E1 wild type-3xFLAG:CDK2 | co-IP with TMT proteomics, refers to: DDX17 |  | concentration not given, Q92841 | relative to: wild type DMSO | relative co-enrichment | 86% |
| CNS(=O)(=O)Nc1nccc(Cc2c(C)c3ccc(Oc4ncccc4F)cc3oc2=O)c1F | MFE-280 | cell viability |  | 7 days |  | IC50 | 0.537 µM |
